# Experimental data of several laboratories.
# A part holds a random share of what one study measured. Positions count from the first letter of the parent shown.

# Set 1
# Target: HLA class I histocompatibility antigen, A alpha chain, allele A*25:01 (Homo sapiens, UniProt P04439)
# Observed: peptide-MHC binding
# Form: peptide
# Concentration: concentration not given
Molecule,binding
ELFARSSDPR,inactive
MKYVWPPIM,inactive
FPHTELANL,inactive
RMILPMSRAFR,inactive
ETIEILRNY,active
EVRKAIEFV,inactive
RAFWGQVQK,inactive
AENCYNLEI,inactive

# Set 2
# Target: Ras GTPase-activating protein-binding protein 1, RRM domain (G3BP1, Homo sapiens, UniProt Q13283)
# Sequence of UniProt Q13283 (whole entry, looked up): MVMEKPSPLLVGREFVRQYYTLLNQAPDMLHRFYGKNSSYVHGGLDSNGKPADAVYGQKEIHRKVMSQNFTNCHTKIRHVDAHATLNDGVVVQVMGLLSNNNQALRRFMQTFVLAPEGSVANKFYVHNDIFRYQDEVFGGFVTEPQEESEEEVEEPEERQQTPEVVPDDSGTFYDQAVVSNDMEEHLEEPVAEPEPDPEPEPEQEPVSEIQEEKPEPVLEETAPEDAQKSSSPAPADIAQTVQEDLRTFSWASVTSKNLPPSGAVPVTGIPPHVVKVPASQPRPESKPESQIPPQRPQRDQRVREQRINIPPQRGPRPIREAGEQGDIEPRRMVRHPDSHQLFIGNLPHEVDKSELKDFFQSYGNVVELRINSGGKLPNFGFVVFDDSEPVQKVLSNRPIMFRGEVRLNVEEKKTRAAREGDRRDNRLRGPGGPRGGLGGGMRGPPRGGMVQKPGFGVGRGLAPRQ
# Method: RNA Bind-n-Seq
# Form: RNA
# Medium: in vitro
# Concentration: 1 µM
# Setting: whole 134-nt RNA, ends assumed
# Together with: 150 mM KCl
# Relative to: input library
# Direction: higher = stronger binding
# Shared flanks, not repeated: GGGAGUUCUACAGUCCGACGAUC … UGGAAUUCUCGGGUGUCAAGG
Oligonucleotide,log2 enrichment
AAGUCCUGUGCUACACAUCGUAUGUACCGAAUCGGGAAAAAAAGGGUUUGGGUGGGAAAGUAUUAUGUUACGCCGUUCGGAUCUGCACUU,0.769
AAGUCCUGUGCUACACAUCGUAUGUACCGAAUCAAAUUUAAACCCAAACCCCCAAAAAAGUAUUAUGUUACGCCGUUCGGAUCUGCACUU,-0.185
ACCAUGCAGGUGGGCAUCUUUGGGAAGUGGGGCAAGGGGGGGAUAGGGAGGGGGGUAACACUUUGGGAAAAGGUGGUCCCAGGUCGUUUC,-0.627
CCUGUGCUACACAUCGUAUGUACCGAAUCGGUUUUUUUGGUUUUUUUGGGGUUUUUUUGGGAAAGUAUUAUGUUACGCCGUUCGGAUCUG,-0.33
CUGUGCUACACAUCGUAUGUACCGAAUCGGUUUUUUUGGGGUUUUUUUGGUUUUUUUGGGGAAAGUAUUAUGUUACGCCGUUCGGAUCUG,-0.318
CCUGUGCUACACAUCGUAUGUACCGAAUCGGGGUUUGGGGUUUUUGGGGUUUUUUUGGGGAAAGUAUUAUGUUACGCCGUUCGGAUCUGC,1.25
ACCAUGCAGGUGGGCAUCUUUGGGAAGUGGGGCAAGGGGGGGAUUGGGAGGGGGGUAACACUUUGGGAACAGGUGGUCCCAGGUCGUUUC,1.02
UCCUGUGCUACACAUCGUAUGUACCGAAUCGGGGUUUUUGGGGUUUUUGGGGAAAGGGGAAAGUAUUAUGUUACGCCGUUCGGAUCUGCA,0.993

# Set 3
# Target: CCND3, cyclin fold, Cln2 fusion (human)
# Method: yeast growth competition, sequencing
# Medium: yeast
# Setting: weak parent motif
# Relative to: not given
# Direction: higher = stronger binding
# Starting sequence: viral docking peptide; YKVKRRLVFGADD
Variant,normalised enrichment score
YKVKRRLVFDADD [G10D],0.731
YKVKRRGVFGADD [L7G],0.225
YKVKRRLVFGKDD [A11K],-0.204
YKFKRRLVFGADD [V3F],0.401
YKVYRRLVFGADD [K4Y],0.656
YKVKRRLVFRADD [G10R],0.508
YKRKRRLVFGADD [V3R],0.342
YKVKRRLVFGAQD [D12Q],0.0467
YKVVRRLVFGADD [K4V],-0.556
YQVKRRLVFGADD [K2Q],0.359
YKVKRRLVFGALD [D12L],0.168
YKVKRRLQFGADD [V8Q],-0.0656
YKVKRRLVFGYDD [A11Y],0.434
YKVKRRLVFGAFD [D12F],0.6
YKVKRRLMFGADD [V8M],0.148
YKVTRRLVFGADD [K4T],0.299
YKVKRRLVFGVDD [A11V],0.165
YKVKRELVFGADD [R6E],0.177
YKVKRGLVFGADD [R6G],0.0378
YEVKRRLVFGADD [K2E],0.204
YKVKRRLVCGADD [F9C],0.519
YGVKRRLVFGADD [K2G],0.125
YKVKRRLVSGADD [F9S],0.0294
YKVKRRLVLGADD [F9L],0.56
YKVKRRLVFGAKD [D12K],-0.136

# Set 4
# Target: UBE2D3 UBC core domain (UniProt P61077)
# Method: yeast two-hybrid
# Medium: yeast
# Setting: mostly zero background
# Relative to: not given
# Direction: higher = stronger interaction
# B1: HLTF RING domain (UniProt Q14527); chain LILSSGSDEECAICLDSLTVPVITHCAHVFCKPCICQVIQNEQPHAKCPLCRNDIHEDNLLE
# B2: BFAR RING domain (UniProt Q9NZS9); chain GPQISVSEFSCHCCYDILVNPTTLNCGHSFCRHCLALWWASSKKTECPECREKWEGFPKVS
# B3: NFX1 RING domain (UniProt Q12986); chain IEQLTTEKYECMVCCELVRVTAPVWSCQSCYHVFHLNCIKKWARSPASQADGQSGWRCPACQNVSAHVPNTY
# Target sequence (chain): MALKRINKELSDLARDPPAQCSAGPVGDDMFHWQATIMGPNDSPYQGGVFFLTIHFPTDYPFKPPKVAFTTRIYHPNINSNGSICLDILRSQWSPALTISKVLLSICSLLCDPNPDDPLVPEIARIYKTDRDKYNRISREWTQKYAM
Molecule,lacZ reporter activity
LEALSSDFLACKICLEQLRAPKTLPCLHTYCQDCLAQLADGGRVRCPECRETVPVPPEGV (TRIM56 RING domain (UniProt Q9BRZ2)),0
B1 (HLTF RING domain),0
LVKDFNPYITCYICKGYLIKPTTVTECLHTFCKTCIVQHFEDSNDCPRCGNQVHETNPLE (PCGF5 RING domain (UniProt Q86SE9)),0
B2 (BFAR RING domain),0
B3 (NFX1 RING domain),0

# Set 5
# Variant: D96A
# Target: ABI1, truncated, D143A, DHFR fusion (Arabidopsis thaliana)
# Method: DHFR PCA, deep sequencing
# Medium: yeast
# Setting: methotrexate growth selection, single substitutions
# Relative to: wild-type fitted maximum
# Direction: higher = stronger binding
# Starting sequence: PYL1, truncated, DHFR fusion (Arabidopsis thaliana); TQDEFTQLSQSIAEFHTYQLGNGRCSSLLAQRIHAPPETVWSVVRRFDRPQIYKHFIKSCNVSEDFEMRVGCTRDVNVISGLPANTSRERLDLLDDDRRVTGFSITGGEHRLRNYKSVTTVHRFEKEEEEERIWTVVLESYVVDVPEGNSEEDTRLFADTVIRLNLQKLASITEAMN
conditions,relative binding score
together with: (+)-ABA 200 µM,50.6%
together with: (+)-ABA 2500 µM,87.3%
together with: (+)-ABA 0.032 µM,2.57%
together with: (+)-ABA 1.4 µM,2.7%
together with: (+)-ABA 710 µM,75.2%
together with: (+)-ABA 58 µM,24.9%
